Published values of several laboratories.
Each line is one published result; not all experiments were run side by side. ± marks the error that the study gave.
Sequence of UniProt Q8TD19 (whole entry, looked up): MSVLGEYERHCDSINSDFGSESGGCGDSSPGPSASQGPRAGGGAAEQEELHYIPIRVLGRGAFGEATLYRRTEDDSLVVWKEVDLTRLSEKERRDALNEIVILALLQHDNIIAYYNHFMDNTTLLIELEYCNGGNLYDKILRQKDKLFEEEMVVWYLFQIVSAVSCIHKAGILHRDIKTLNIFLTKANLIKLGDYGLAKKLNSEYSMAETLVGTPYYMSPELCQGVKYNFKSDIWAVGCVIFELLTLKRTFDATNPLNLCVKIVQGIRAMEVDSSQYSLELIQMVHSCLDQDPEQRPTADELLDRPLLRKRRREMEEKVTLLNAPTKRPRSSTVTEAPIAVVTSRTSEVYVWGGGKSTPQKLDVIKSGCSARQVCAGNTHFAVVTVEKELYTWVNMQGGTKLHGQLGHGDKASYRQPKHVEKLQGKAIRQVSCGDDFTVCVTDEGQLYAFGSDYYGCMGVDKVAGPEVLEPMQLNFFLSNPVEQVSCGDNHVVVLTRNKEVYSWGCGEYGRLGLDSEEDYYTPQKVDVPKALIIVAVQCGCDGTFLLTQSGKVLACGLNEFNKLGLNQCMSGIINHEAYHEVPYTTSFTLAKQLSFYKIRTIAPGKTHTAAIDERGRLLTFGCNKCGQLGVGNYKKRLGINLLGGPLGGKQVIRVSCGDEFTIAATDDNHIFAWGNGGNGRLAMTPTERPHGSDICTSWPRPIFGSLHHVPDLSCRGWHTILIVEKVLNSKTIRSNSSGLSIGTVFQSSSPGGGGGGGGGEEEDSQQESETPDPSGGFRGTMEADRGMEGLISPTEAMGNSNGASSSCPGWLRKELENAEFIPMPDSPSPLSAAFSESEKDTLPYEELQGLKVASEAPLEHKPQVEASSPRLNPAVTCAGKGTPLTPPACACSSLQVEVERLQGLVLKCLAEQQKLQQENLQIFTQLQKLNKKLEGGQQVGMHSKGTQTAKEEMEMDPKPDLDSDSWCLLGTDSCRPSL

The tissue uptake of `CC(C)Cc1ccc(C(C)C(=O)N[C@@H](CCCCNC(=O)CCOCCOCCOCCOCCOCCOCCNC(=O)CN2CCN(CC(=O)[O-])CCN(CC(=O)[O-])CCN(CC(=O)[O-])CC2)C(=O)Nc2cccc3c(C(=O)NCC(=O)N4CC(F)(F)C[C@H]4C#N)ccnc23)cc1.[177Lu+3]` (stereo partly shown) is reported as 0.55 ± 0.18 %ID/g (mouse, U-87 MG tumour xenograft, kidneys; 48 h).
With `Cc1cc(C)n(CCN(CCN)CCCCCCNC(=O)[C@@H](N)Cc2c[nH]cn2)n1.[99Tc+].[C-]#[O+].[C-]#[O+].[C-]#[O+]` the tissue uptake was 2.72 ± 0.3 %IA/g (BALB/c nude mice, MCF7 xenograft, lung; intravenous, 15 min).
`N#C[C@@H]1CC(F)(F)CN1C(=O)CNC(=O)c1ccnc2c(NC(=O)CCOCCOCCOCCOCCOCCOCCNC(=O)[C@H](CCCCNC(=O)CN3CCN(CC(=O)[O-])CCN(CC(=O)[O-])CCN(CC(=O)[O-])CC3)NC(=O)CCCc3ccc(I)cc3)cccc12.[177Lu+3]` has a tissue uptake of 1.97 ± 0.59 %ID/g (mouse, U-87 MG tumour xenograft, kidneys; 1 h).
`COc1cccc(OC)c1-c1cc(C(=O)NC2(C(=O)O)C3CC4CC(C3)CC2C4)nn1-c1ccc(C(=O)N(C)CCOCCN(C)C(=O)[C@H](CCCCNC(=O)[C@H](CC(C)C)NC(=O)C2OC2C(=O)O)NC(=O)CN2CCN(CC(=O)[O-])CCN(CC(=O)[O-])CCN(CC(=O)[O-])CC2)cc1C(C)C.[177Lu+3]` (mixture of isomers) gave a tissue uptake of 1.3 %ID/g (mouse, HT-29 xenograft, lung; 4 h post injection).
The tissue uptake of `CCCC[C@H](NC(=O)CNC(=O)CNC(=O)[C@H](CCCCNC(=O)[C@H](CC(=O)O)NC(=O)C(C)c1ccc(CC(C)C)cc1)NC(=O)CN1CCN(CC(=O)O)CCN(CC(=O)O)CCN(CC(=O)O)CC1)C(=O)N[C@H]1CC(=O)NCCCC[C@@H](C(N)=O)NC(=O)[C@H](Cc2c[nH]c3ccccc23)NC(=O)[C@H](CCCNC(=N)N)NC(=O)[C@@H](Cc2ccccc2)NC(=O)[C@H](Cc2c[nH]cn2)NC1=O` (stereo partly shown) [lutetium-177 labelled] is reported as 1.29 ± 0.33 %ID (C57 mouse, intestines; intravenous, 2 h, 177Lu-labelled, receptor blockade, added: unlabelled NDP-MSH 10 µg co-injected).
For `CCCC[C@H](NC(=O)CCCCCCCNC(=O)CN1CCN(CC(=O)O)CCN(CC(=O)O)CC1)C(=O)N[C@H]1CC(=O)NCCCC[C@@H](C(N)=O)NC(=O)[C@H](Cc2c[nH]c3ccccc23)NC(=O)[C@H](CCCNC(=N)N)NC(=O)[C@@H](Cc2ccccc2)NC(=O)[C@H](Cc2c[nH]cn2)NC1=O` [fluorine-18 labelled], the tissue uptake was 0.21 ± 0.06 %ID/g (C57 mice B16-F10 melanoma, blood; intravenous, 0.37 MBq, 2 h).
With `COc1cccc(OC)c1-c1cc(C(=O)NC2(C(=O)O)C3CC4CC(C3)CC2C4)nn1-c1ccc(C(=O)NCCNC(=O)[C@H](CCCCNC(=O)[C@H](CC(C)C)NC(=O)C2OC2C(=O)O)NC(=O)CN2CCN(CC(=O)[O-])CCN(CC(=O)[O-])CCN(CC(=O)[O-])CC2)cc1C(C)C.[177Lu+3]` (mixture of isomers) the tissue uptake was 0.33 %ID/g (mouse, HT-29 xenograft, heart; 24 h post injection).
The hepatic clearance of `CC(=O)Nc1ccc(C2CCCCC2)cc1` is reported as 83 mL/min/kg (hepatocyte stability; cryopreserved mouse hepatocytes; 1 µM).
With `N#C[C@@H]1CC(F)(F)CN1C(=O)CNC(=O)c1ccnc2c(NC(=O)[C@@H](N)CCCCNC(=O)CCOCCOCCOCCOCCOCCOCCNC(=O)CN3CCN(CC(=O)[O-])CCN(CC(=O)[O-])CCN(CC(=O)[O-])CC3)cccc12.[177Lu+3]` the tissue uptake was 0.81 ± 0.3 %ID/g (mouse, U-87 MG tumour xenograft, lung; 4 h).
For `Nc1ncc(-c2cc(-c3cnn(CC(F)(F)F)c3)ncc2F)nc1C(=O)NC1CNCC(F)C1` (stereo not shown), the remaining binding was 95% (PRP4; KINOMEscan; 1 µM; reference: DMSO control).
`Cc1nn(-c2cccc(N)c2)c(=O)c2cnc(Nc3ccc(N4CCNCC4)cc3)nc12` has an IC50 of > 10 µM (Serine/threonine-protein kinase Nek9 (NEK9, Homo sapiens, UniProt Q8TD19); enzyme activity, inhibitor).
The tissue uptake of `[123I]c1ccc2nc(-c3ccc(-n4ccnn4)nc3)cn2c1` is reported as 19.9 ± 7.46 %ID/g (Wistar rat, male, adrenals; intravenous, 4 MBq, 5 min).
`O=C(O)CCCOc1ccc([18F])cc1-c1cc(-c2ccccc2C(F)(F)F)n(-c2ccccc2)n1` gave a tissue uptake of 0.15 ± 0.12 %ID/g (mouse, bladder; intravenous, dose not given, 360 min).
`[11CH3]N1CCC(NC(=O)c2cc(-c3c(O)cc(O)cc3Oc3ccc([N+](=O)[O-])cc3)on2)CC1` gave a tissue uptake of 1.2 ± 0.3 %ID (Wistar rat, female, healthy, lungs; intravenous, 2 min).
The tissue uptake of `COc1cccc(OC)c1-c1cc(C(=O)NC2(C(=O)O)C3CC4CC(C3)CC2C4)nn1-c1ccc(C(=O)N(C)CCCN(C)CCCN(C)C(=O)[C@H](CCCCNC(=O)[C@H](CC(C)C)NC(=O)C2OC2C(=O)O)NC(=O)CN2CCN(CC(=O)[O-])CCN(CC(=O)[O-])CCN(CC(=O)[O-])CC2)cc1C(C)C.[177Lu+3]` (mixture of isomers) is reported as 5.2 %ID/g (mouse, HT-29 xenograft, kidney; 72 h post injection).
Under “volume of distribution”, `C=C(NC(=O)c1csc(-c2nc3c(cc2O)-c2nc(cs2)C(=O)NC(C(C)O)C(=O)NC(=C(C)OC)c2nc(cs2)C(=O)NC2c4nc(cs4)C(=O)NC(COC(=O)c4c5c6c(cccc6n4O)COC(=O)C(OC4CC(C)(O)C(N(C)C)C(C)O4)C2OC5)c2nc-3cs2)n1)C(N)=O` (stereo not shown) is recorded as 9.3 L/kg (Sprague-Dawley rat, male, plasma; intravenous infusion, 2 mg/kg single dose).
For `O=C(NCC1OC2CCC=CCCC2O1)c1ccc([18F])nc1` (stereo not shown), the tissue uptake was 3.8 ± 1 %ID/g (healthy female BALB/c nude mice, spleen; intravenous, 7.4 MBq per mouse, 5 min).
The tissue uptake of `N#C[C@@H]1CC(F)(F)CN1C(=O)CNC(=O)c1ccnc2c(NC(=O)[C@H](CCCCNC(=O)CCOCCOCCOCCOCCOCCOCCNC(=O)CN3CCN(CC(=O)[O-])CCN(CC(=O)[O-])CCN(CC(=O)[O-])CC3)NC(=O)CCCc3ccc(I)cc3)cccc12.[177Lu+3]` is reported as 0.37 ± 0.25 %ID/g (mouse, U-87 MG tumour xenograft, lung; 48 h).
For `N#CCNC(=O)c1ccc([C@H]2[C@@H](F)[C@@H](F)C[C@@H](F)[C@H]2F)cc1`, the hepatic clearance was 13 mL/min/kg (hepatocyte stability; cryopreserved rat hepatocytes; 1 µM).

Excerpt of the above:
`O=C(O)CCCOc1ccc([18F])cc1-c1cc(-c2ccccc2C(F)(F)F)n(-c2ccccc2)n1` gave a tissue uptake of 0.15 ± 0.12 %ID/g (mouse, bladder; intravenous, dose not given, 360 min).
With `N#C[C@@H]1CC(F)(F)CN1C(=O)CNC(=O)c1ccnc2c(NC(=O)[C@@H](N)CCCCNC(=O)CCOCCOCCOCCOCCOCCOCCNC(=O)CN3CCN(CC(=O)[O-])CCN(CC(=O)[O-])CCN(CC(=O)[O-])CC3)cccc12.[177Lu+3]` the tissue uptake was 0.81 ± 0.3 %ID/g (mouse, U-87 MG tumour xenograft, lung; 4 h).
